Assay results from different studies.
Each line is one published result; not all experiments were run side by side. ± marks the error that the study gave.

For `C[C@H](CCC(=O)O)[C@H]1CC[C@H]2[C@@H]3CC[C@@H]4C[C@H](OS(=O)(=O)O)CC[C@]4(C)[C@H]3CC[C@]12C`, the Cmin was 283 ± 16 nM (human, plasma; control).
For `O=C(O)CCC(=O)O.[2H]C([2H])([2H])Oc1cc(C)c2[nH]ccc2c1CN1CC[C@@H](C2CC2)C[C@H]1c1ccc(C(=O)O)cc1`, the Cmin was 3000 ng/mL (human, plasma; 100 mg twice daily, day 10, multiple ascending dose, geometric mean).
With `Cc1cc(/C=C/C#N)cc(C)c1Nc1ccnc(Nc2ccc(C#N)cc2)n1` the Cmin was 50 ng/mL (human, haemodialysis patients, plasma; oral, dose not given, steady state, fixed-dose combination).
`O=C(O)CCCCCCCCCCCCCCC(=O)O` has a Cmin of 109 ± 14 nM (human, plasma; endogenous baseline diurnal).
`Nc1c2c(cc3c1CCC3)CCC2` gave a Cmin of 13.9 ng/mL (human, plasma; oral, 300 mg twice daily of GDC-2394, day 7, multiple ascending dose).
For `C[C@H](CCC(=O)NCC(=O)O)[C@H]1CC[C@H]2[C@@H]3CC[C@@H]4C[C@H](O)CC[C@]4(C)[C@H]3C[C@H](O)[C@]12C`, the Cmin was 49.8 ± 10.3 nM (human, plasma; oral, dose not given, control).
The Cmin of `Cc1ncnc2c1ccn2[C@@H]1C[C@H](Oc2cc(C(F)F)c(F)c3c2CNCC3)[C@@H](O)[C@H]1O` is reported as 17.1 ng/mL (human; oral, 6 mg twice daily).
For `C[C@H](CCC(=O)NCCS(=O)(=O)O)[C@H]1CC[C@H]2[C@@H]3CC[C@@H]4C[C@H](OS(=O)(=O)O)CC[C@]4(C)[C@H]3CC[C@]12C`, the Cmin was 58.1 ± 12.2 nM (human, plasma; baseline).
The Cmin of `CCOc1c([C@H](C)n2nc(C)c3c(N)ncnc32)cc(Cl)c(F)c1[C@@H]1CNC(=O)C1` is reported as 202 nM (human patients, indolent lymphoma, plasma; oral, 20 mg, day 15, monotherapy).
`Cn1cc(-c2cn3nccc3c(-c3cnn([C@]4(CC#N)C[C@@H](C#N)C4)c3)n2)cn1` gave a Cmin of 24.8 ng/mL (healthy humans fed, plasma; 400 mg once daily, day 10, geometric mean).
For `Fc1ccc([C@@H]2CCNC[C@H]2COc2ccc3c(c2)OCO3)cc1`, the Cmin was 10 ng/mL (human, CYP2D6 normal metabolizers, plasma; oral, 20 mg, steady state).
`CCCCOCCOc1ccc(-c2ccc3c(c2)/C=C(/C(=O)Nc2ccc([S@@+]([O-])Cc4cncn4CCC)cc2)CCCN3CC(C)C)cc1` gave a Cmin of 80.7 ng/mL (human, mild hepatic impairment, plasma; oral, 150 mg, day 1).

A few entries again:
For `Fc1ccc([C@@H]2CCNC[C@H]2COc2ccc3c(c2)OCO3)cc1`, the Cmin was 10 ng/mL (human, CYP2D6 normal metabolizers, plasma; oral, 20 mg, steady state).
`CCCCOCCOc1ccc(-c2ccc3c(c2)/C=C(/C(=O)Nc2ccc([S@@+]([O-])Cc4cncn4CCC)cc2)CCCN3CC(C)C)cc1` gave a Cmin of 80.7 ng/mL (human, mild hepatic impairment, plasma; oral, 150 mg, day 1).
